Results pooled from the literature.
Each line is one published result; not all experiments were run side by side. Values joined by “and” are separate records of one study, mostly repeats; a detail may differ. ± gives the spread as reported.
ADC-7 beta-lactamase: ADC-7 beta-lactamase (Acinetobacter baumannii, UniProt Q6DRA1)
Enpp1: Ectonucleotide pyrophosphatase/phosphodiesterase family member 1 (Enpp1, Mus musculus, UniProt P06802)

Chains of the proteins cited; added tags and fusions are not shown. Residues count along the entry.
UniProt P06802, 92-905 isoform 2 limits assumed: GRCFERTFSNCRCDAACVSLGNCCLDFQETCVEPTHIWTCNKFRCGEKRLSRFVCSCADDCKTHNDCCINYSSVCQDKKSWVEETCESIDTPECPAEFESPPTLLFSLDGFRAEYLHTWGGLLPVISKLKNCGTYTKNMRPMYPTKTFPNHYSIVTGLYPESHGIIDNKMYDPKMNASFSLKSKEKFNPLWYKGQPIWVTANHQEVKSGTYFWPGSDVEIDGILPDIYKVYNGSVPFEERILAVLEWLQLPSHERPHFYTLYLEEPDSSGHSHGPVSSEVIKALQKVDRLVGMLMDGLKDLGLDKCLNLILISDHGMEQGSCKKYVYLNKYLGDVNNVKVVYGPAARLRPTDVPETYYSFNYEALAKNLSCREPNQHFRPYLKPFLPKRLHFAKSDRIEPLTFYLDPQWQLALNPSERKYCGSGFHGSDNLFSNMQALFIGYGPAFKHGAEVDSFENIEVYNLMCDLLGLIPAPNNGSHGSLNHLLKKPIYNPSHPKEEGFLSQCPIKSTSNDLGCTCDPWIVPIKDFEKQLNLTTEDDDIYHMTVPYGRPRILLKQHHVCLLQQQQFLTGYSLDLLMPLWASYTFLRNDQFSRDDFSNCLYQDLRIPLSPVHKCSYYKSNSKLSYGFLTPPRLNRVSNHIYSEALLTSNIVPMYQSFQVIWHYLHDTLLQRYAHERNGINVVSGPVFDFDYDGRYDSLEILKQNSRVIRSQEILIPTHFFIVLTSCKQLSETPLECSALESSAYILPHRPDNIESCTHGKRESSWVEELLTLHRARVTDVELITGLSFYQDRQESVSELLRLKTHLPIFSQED
UniProt P34913, whole entry: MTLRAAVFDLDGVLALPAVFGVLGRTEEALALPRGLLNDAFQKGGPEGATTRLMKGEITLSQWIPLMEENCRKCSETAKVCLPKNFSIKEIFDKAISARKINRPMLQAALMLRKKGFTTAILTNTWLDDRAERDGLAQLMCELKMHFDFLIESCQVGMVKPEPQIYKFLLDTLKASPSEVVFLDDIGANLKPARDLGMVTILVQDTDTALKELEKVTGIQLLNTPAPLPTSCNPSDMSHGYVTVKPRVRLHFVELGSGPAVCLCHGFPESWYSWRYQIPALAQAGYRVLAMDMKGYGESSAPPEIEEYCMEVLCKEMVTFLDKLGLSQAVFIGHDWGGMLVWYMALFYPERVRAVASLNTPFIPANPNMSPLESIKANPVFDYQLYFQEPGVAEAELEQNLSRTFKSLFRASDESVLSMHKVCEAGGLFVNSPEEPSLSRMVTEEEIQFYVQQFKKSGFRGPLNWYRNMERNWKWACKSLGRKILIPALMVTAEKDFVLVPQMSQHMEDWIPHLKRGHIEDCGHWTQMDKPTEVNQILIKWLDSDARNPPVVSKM
UniProt P04293, whole entry: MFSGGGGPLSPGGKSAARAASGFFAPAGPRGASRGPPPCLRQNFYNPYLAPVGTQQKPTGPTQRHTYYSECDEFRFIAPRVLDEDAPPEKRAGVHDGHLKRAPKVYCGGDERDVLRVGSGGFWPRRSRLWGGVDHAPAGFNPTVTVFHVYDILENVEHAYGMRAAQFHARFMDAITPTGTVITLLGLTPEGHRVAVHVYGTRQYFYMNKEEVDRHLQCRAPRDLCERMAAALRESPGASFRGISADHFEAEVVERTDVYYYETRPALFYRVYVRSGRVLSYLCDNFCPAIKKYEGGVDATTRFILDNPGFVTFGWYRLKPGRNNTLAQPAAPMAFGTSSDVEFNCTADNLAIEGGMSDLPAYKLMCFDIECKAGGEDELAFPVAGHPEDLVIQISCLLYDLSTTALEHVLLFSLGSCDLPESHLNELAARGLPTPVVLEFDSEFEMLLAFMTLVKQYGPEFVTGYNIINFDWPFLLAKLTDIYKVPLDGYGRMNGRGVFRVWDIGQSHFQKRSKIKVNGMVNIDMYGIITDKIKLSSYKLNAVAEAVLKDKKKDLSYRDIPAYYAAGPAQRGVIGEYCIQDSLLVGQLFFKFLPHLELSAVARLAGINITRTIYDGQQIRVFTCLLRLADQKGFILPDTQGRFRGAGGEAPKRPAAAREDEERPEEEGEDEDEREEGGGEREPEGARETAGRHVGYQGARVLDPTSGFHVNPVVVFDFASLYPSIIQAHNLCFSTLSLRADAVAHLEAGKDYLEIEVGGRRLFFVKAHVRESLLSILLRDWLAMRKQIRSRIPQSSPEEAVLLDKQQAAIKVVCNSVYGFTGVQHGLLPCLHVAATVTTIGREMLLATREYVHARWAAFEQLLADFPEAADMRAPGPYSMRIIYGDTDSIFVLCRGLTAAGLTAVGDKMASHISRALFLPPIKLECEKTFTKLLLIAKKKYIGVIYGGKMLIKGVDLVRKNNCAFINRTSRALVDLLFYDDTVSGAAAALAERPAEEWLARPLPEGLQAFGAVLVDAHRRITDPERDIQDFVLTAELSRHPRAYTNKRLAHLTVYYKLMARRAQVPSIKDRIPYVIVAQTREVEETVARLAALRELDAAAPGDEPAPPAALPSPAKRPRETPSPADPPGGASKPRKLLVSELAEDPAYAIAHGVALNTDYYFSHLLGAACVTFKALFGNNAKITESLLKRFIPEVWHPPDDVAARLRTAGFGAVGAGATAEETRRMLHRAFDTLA
UniProt Q8TYM5, whole entry: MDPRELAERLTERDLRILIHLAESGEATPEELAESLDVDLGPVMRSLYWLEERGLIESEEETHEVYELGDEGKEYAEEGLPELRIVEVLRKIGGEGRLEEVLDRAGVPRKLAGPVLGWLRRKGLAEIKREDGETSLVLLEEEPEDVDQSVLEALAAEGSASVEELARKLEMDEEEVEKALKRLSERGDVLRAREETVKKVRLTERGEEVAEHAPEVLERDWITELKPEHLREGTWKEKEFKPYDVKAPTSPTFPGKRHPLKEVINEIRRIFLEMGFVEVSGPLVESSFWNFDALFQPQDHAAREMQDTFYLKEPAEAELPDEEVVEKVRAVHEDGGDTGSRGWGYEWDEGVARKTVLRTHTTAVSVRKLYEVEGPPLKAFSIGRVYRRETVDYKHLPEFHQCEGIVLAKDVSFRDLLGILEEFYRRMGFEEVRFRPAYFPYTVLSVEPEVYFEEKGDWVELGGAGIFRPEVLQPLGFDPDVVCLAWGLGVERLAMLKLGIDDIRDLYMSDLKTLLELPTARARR
UniProt Q9H9B1, 1126-1243 limits assumed: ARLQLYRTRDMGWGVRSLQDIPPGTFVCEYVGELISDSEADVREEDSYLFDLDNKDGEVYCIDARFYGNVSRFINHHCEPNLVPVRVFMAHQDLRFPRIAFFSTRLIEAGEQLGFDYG
UniProt Q8T6T2, whole entry: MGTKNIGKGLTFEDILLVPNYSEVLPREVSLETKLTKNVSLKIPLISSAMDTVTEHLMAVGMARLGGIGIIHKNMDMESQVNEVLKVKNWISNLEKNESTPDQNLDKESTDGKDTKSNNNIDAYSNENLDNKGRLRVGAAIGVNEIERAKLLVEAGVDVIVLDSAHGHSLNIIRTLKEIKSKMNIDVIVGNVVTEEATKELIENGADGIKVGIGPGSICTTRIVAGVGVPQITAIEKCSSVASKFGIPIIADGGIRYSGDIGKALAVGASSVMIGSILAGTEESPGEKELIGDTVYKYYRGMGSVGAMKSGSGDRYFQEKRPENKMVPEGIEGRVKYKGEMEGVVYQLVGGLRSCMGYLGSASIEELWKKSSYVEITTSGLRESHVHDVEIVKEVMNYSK
UniProt P46925, 125-453 limits assumed: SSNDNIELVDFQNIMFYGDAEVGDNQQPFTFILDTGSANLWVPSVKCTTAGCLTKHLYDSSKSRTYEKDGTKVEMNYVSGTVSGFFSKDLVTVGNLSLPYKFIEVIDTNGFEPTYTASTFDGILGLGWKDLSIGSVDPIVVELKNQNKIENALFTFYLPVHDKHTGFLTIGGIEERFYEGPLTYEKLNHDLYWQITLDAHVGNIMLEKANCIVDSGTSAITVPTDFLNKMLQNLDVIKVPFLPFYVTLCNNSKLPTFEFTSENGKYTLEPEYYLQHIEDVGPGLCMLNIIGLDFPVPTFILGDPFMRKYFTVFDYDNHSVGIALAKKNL
UniProt P49058, whole entry: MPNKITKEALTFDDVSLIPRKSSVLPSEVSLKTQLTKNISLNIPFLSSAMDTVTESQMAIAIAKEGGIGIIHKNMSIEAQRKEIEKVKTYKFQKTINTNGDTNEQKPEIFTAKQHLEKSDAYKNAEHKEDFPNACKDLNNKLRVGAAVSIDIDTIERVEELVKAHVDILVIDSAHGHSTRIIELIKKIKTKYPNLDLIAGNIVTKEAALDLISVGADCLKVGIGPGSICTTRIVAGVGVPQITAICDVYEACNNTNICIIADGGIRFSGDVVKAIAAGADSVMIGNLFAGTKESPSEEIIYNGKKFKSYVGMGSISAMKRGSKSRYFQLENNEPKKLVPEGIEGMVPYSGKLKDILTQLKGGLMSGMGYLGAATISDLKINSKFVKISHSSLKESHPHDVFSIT
UniProt P53634, whole entry, looked up: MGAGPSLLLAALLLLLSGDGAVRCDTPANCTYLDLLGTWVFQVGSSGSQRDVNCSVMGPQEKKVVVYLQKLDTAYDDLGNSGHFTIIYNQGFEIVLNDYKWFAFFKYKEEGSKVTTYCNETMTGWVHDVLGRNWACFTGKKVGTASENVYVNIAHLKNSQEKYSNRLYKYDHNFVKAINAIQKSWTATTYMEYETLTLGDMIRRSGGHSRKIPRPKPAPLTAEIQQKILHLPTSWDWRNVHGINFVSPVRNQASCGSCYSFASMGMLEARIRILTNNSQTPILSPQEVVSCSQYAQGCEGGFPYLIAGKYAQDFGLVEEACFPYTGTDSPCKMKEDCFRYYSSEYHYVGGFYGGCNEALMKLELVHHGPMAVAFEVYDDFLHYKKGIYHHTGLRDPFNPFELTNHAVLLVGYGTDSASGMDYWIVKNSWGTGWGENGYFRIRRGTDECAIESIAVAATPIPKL
UniProt Q8TX56, whole entry partner: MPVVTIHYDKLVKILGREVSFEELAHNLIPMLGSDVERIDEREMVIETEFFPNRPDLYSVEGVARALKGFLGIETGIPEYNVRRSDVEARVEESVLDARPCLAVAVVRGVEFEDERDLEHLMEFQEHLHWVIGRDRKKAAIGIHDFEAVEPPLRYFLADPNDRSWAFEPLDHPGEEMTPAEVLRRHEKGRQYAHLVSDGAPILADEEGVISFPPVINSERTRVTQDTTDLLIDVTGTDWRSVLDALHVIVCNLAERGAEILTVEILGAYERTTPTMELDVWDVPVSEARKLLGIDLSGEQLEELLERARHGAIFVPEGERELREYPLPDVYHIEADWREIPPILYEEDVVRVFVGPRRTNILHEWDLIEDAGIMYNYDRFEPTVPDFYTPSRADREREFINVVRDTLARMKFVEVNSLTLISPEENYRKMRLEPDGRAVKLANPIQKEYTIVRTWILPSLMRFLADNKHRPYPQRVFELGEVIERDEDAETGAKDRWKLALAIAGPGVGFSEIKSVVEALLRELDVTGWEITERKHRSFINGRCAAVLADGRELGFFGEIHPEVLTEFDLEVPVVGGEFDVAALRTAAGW

| SMILES | target | test | setting | quantity | result |
| --- | --- | --- | --- | --- | --- |
| [2H]c1c([2H])c(S(=O)(=O)N2CCC([2H])(C(=O)Nc3ccc4cc(C(=O)O)ccc4c3)CC2)c(C([2H])([2H])[2H])c([2H])c1C([2H])([2H])[2H] | Bifunctional epoxide hydrolase 2 (EPHX2, Homo sapiens, UniProt P34913) | – | pH 7.0, 30 °C, with: CMNPC substrate 5 µM | IC50 | 58 nM |
| NC(=O)c1cn(C[C@H](NC(=O)Cc2cccs2)B(O)O)nn1 | ADC-7 beta-lactamase | enzyme activity, inhibitor | 5 min preincubation, pH 7.4, room temperature, with: nitrocefin | Ki | 224 ± 2 nM |
| CCN1CCN(C(=O)N[C@@H](C(=O)NCB2OC(C)(C)C(C)(C)O2)c2ccc(O)cc2)C(=O)C1=O | ADC-7 beta-lactamase | inhibitor | pH 7.4, room temperature, with: nitrocefin substrate | Ki | ≤ 1000 nM and 600 nM |
| Nc1nc2c(ncn2[C@@H]2CC[C@H](OC(C(=O)O)P(=O)(O)O)C2)c(=O)[nH]1 (relative stereo) | DNA polymerase catalytic subunit (Herpes simplex virus, UniProt P04293) | mixed inhibitor, mixed model fit | calf thymus DNA template, with: varying dGTP | Ki | 2210 nM |
| C1=C(CCNCc2ccccc2)CCCC1 | Phenylalanine--tRNA ligase alpha subunit (pheS, Methanopyrus kandleri, UniProt Q8TYM5) | phenylalanine activation, inhibitor | – | IC50 | > 300 µg/mL |
| COc1cc2ncnc(N3CCC(CCNS(N)(=O)=O)CC3)c2cc1OC | Enpp1 | enzyme activity, inhibitor, coupled luciferase AMP detection | pH 7.4, with: cGAMP 5 µM | Ki | 1600 nM |
| COc1cc2c(N(C)C)nc(NCCCN(C)C)nc2cc1OCCCCCN | Histone-lysine N-methyltransferase EHMT1, SET domain (EHMT1, Homo sapiens, UniProt Q9H9B1) | methyltransferase activity, inhibitor | – | Ki | 75000 nM |
| COc1c(C)c2c(c(O)c1CCC(C)CCC(=O)Nc1ccc(Cl)c(C(F)(F)F)c1)C(=O)OC2 (centres unmarked) | Inosine-5'-monophosphate dehydrogenase (Cryptosporidium parvum, UniProt Q8T6T2) | inhibitor | pH 8.0, 25 °C, with: NAD 300 µM, IMP 250 µM | Ki | 60 nM |
| CSC[C@H](NC(=O)Cc1ccc(N)cc1)C(=O)N[C@@H](Cc1ccccc1)[C@H](O)C(=O)N1CSC(C)(C)[C@H]1C(=O)N[C@H]1c2ccccc2C[C@H]1O | Plasmepsin II (Plasmodium falciparum, UniProt P46925) | inhibitor, fluorogenic substrate | pH 5.0, 25 °C, mature enzyme | Ki | 1.3 nM |
| CC(Oc1ccccc1)C(=O)Nc1ccc(Cl)cc1 (centres unmarked) | Inosine-5'-monophosphate dehydrogenase (Borreliella burgdorferi, UniProt P49058) | enzyme activity, inhibitor | corrected for open enzyme conformation | IC50 | 840 nM |
| CC(C)(NC(=O)Nc1ccc(Cl)cc1)c1cccc(C(=N)NO)c1 | IMPDH 2, Staphylococcus aureus | inhibitor | with: 500 µM NAD+, 1.0 mM IMP | Ki | 12.7 ± 0.4 nM |
| CC(C)CC(NC(=O)C1OC1C(=O)O)C(=O)NCCCCN=C(N)N (centres unmarked) | Dipeptidyl peptidase 1 (CTSC, Homo sapiens, UniProt P53634) | enzyme activity, inhibitor | – | IC50 | 960 nM |
| CC(=NO)c1cccc(C(C)(C)NC(=O)Nc2ccc(Cl)c(-c3nc(C(F)(F)F)cs3)c2)c1 | IMPDH 2, Staphylococcus aureus | inhibitor | with: 500 µM NAD+, 1.0 mM IMP | Ki | 4.2 ± 1.7 nM |
| CCOc1cccc2c(N3CCC(CCP(=O)(O)O)CC3)ncnc12 | Enpp1 | enzyme activity, inhibitor, coupled luciferase AMP detection | pH 7.4, with: cGAMP 5 µM | Ki | < 2 nM |

Excerpt of the above:
| SMILES | target | test | setting | quantity | result |
| --- | --- | --- | --- | --- | --- |
| COc1c(C)c2c(c(O)c1CCC(C)CCC(=O)Nc1ccc(Cl)c(C(F)(F)F)c1)C(=O)OC2 (centres unmarked) | Inosine-5'-monophosphate dehydrogenase (Cryptosporidium parvum, UniProt Q8T6T2) | inhibitor | pH 8.0, 25 °C, with: NAD 300 µM, IMP 250 µM | Ki | 60 nM |
